Measured values from different studies.
Each numbered part is a random draw from the data of one study; scales do not carry over between parts. Positions count from the first letter of the parent shown.

Set 1
Target: CCND2, cyclin fold, Cln2 fusion (human)
Method: yeast growth competition, sequencing
Medium: yeast
Notes: weak parent motif
Relative to: not given
Reading: higher = stronger binding
Parent: RBL2 docking peptide (human); STTRRRLFVENDS; partner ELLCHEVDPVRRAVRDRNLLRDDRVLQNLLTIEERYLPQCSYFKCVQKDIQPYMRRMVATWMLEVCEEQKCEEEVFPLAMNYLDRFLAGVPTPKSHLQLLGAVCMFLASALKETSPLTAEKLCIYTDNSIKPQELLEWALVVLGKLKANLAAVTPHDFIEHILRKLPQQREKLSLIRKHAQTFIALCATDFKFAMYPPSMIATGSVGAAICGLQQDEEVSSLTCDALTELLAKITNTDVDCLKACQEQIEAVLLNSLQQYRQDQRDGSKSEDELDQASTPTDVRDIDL
Variant | normalised enrichment score
R6V | 0.32
L7C | -0.0733
T3I | 0.011
L7T | -0.0362
R6Q | 0.44
L7I | 0.61

Set 2
Target: RNA binding protein fox-1 homolog 2, RRM domain, GST-SBP tag (RBFOX2, Homo sapiens, UniProt O43251-10, residues 100-194)
Method: RNA Bind-n-Seq
Molecule type: RNA
Medium: in vitro
Concentration: 365 nM
Notes: natural RNA segment, single round, ends assumed
Relative to: no-protein control
Reading: higher = stronger binding
Shared flanks, not repeated: GGGAGUUCUACAGUCCGACGAUC … UGGAAUUCUCGGGUGCCAA
Target sequence (chain): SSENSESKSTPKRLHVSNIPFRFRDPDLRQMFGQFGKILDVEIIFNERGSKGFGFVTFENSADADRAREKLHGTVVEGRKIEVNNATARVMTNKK
Sequence | RBNS enrichment (R)
AGUGUUCUCUUCGAGCAAAGUAGACCUGGGUCACUGUAGGCAUAGGACUUGGAUUGCUUCAGAUGGUUUGCUGUAUCAUUUUUCUUCUUUUUCUUUUCCUGGGGACUUGU | 1.04
UCUCGGUCCACGCUGCUUUCUUCCCAAAGGACAUGUAUAUUUGCAGAGCUCCACAUACAGAAACACAUUAUUUUGCAGAAAUAGGUGUUUUUAAGAAGUUUUACUACAGG | 0.336
GCUUCAUGUUCAUGGAUGACACAAUGUUUUUGCAAAAAAACCCUGAAACUAUUCUUUGGCAUUGGUGUCCAUGGCCCUAUACCGCCAUCUUACACGAAAGCCACAGAGUU | 0.328
CUUGCUAGACUCCCGUUUGUUCUAAGAGUCAGGCUUAUGUAUAGCAGCUUCUAGCUGGUUCUCUAUUAUCCUGGUAAUAUUGUUUCUCAGCUCUGAAAUUUGAAAGUCUA | 0.429
AGCACUCUUGGAUUAAUUCAAUUGUUAUUUCUACUCUUUAACAACAGAAUAAGCCAGAUCCUUGACUCUCAAGCCCCCAGUUUUUAAAAACAAGGUGUUCCUUGAUUUAU | 1.38
GGACAUCGGGACACCGAGAUAGCAUUUUUAGUACCAAUAAGAGACCUGAGAAUGGCCGGAGACCUCAGAUAUGUGUCUCUGCCAGUUGACUGGGCUGGUCCCUCUCAUUU | 1.95
CCAGUUUAUUAGUUUAAAUCAGUACUUUGCAUAUAAUAAGCAUUCAACAAAAAUUUAUUGACUGAAAUGAAUUUUAAAUGCAUGUGUAUGAACUUGUUUUUCUUAAUCUU | 1.33
GUUACCAACCUAAAAAUAAAAAAUCCGAACAGCAUACUUGAAGAAUGUAAUACUCAAACUCUCAGUGCUUCCUUAUGGUUUCUAAUAGGAUUUUUUAUUAUUGUUAUUAU | 0.695
GACCUCUCGAAAGUCUCUGUGGGGGCAUGAGGGAGAAAAGGCCAUUGGGAGAAUUACUGCCUUUACUUUGGGACUACUUUUAUGCUGAUAACUUGGGAUUUCUUGAUAGU | 0.614

Set 3
Target: ABI1, truncated, D143A, DHFR fusion (Arabidopsis thaliana)
Method: DHFR PCA, deep sequencing
Medium: yeast
Notes: methotrexate growth selection, single substitutions
With: (+)-ABA 0.0091 µM
Relative to: wild-type fitted maximum
Reading: higher = stronger binding
Parent: PYL1, truncated, DHFR fusion (Arabidopsis thaliana); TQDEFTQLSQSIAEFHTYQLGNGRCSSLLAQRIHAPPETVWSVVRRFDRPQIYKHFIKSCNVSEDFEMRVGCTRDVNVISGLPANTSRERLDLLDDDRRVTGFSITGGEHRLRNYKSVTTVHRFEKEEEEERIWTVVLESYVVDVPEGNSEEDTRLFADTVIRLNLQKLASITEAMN
Variant | relative binding score [%]
S117V | -3.42
V136D | 0.305
W134E | 38.5
I57K | 14

Mixed results
Molecule | target | test | test system | conditions | scale | endpoint | result
PhoQ, residues 284 288 289 292 302 303 SSCLAV | PhoP, residues 12 14 15 18 19 YHFSH (Escherichia coli, UniProt P23836) | Sort-seq, item: YFP reporter | E. coli | PhoQ-PhoP variant library, with: 10 µM Mg2+ | relative to: high Mg2+ state, higher = stronger signaling | fold induction | 2.56

Some of these lines once more (set 2):
Sequence | RBNS enrichment (R)
CUUGCUAGACUCCCGUUUGUUCUAAGAGUCAGGCUUAUGUAUAGCAGCUUCUAGCUGGUUCUCUAUUAUCCUGGUAAUAUUGUUUCUCAGCUCUGAAAUUUGAAAGUCUA | 0.429
AGCACUCUUGGAUUAAUUCAAUUGUUAUUUCUACUCUUUAACAACAGAAUAAGCCAGAUCCUUGACUCUCAAGCCCCCAGUUUUUAAAAACAAGGUGUUCCUUGAUUUAU | 1.38
GGACAUCGGGACACCGAGAUAGCAUUUUUAGUACCAAUAAGAGACCUGAGAAUGGCCGGAGACCUCAGAUAUGUGUCUCUGCCAGUUGACUGGGCUGGUCCCUCUCAUUU | 1.95
